Assay results collected from several papers.
A part holds a random share of what one study measured.

Set 1
Organism: Vesicular stomatitis virus
Read-out: pseudovirus infection
Concentration: concentration not given
Notes: VSV-G control pseudotype
Relative to: vehicle
NCC[C@H](O)C(=O)N[C@@H]1C[C@H](N)[C@@H](O[C@H]2O[C@H](CN)[C@@H](O)[C@H](O)[C@H]2O)[C@H](O)[C@H]1O[C@H]1O[C@H](CO)[C@@H](O)[C@H](N)[C@H]1O.O=S(=O)(O)O.O=S(=O)(O)O has a GFP-positive cells of 126%.
CNC(=O)c1cnn(-c2nc(N)c3ncn([C@@H]4O[C@H](CO)[C@@H](O)[C@H]4O)c3n2)c1 has a GFP-positive cells of 99.2%.
For C[C@@H]1CCO[C@H]2Cn3cc(C(=O)NCc4ccc(F)cc4F)c(=O)c([O-])c3C(=O)N12.[Na+], the GFP-positive cells was 98.9%.
CN1CCc2nc(C(=O)N[C@@H]3C[C@@H](C(=O)N(C)C)CC[C@@H]3NC(=O)C(=O)Nc3ccc(Cl)cn3)sc2C1.Cc1ccc(S(=O)(=O)O)cc1.O has a GFP-positive cells of 114%.
With CCN[C@@H]1C[C@H](N)[C@@H](O[C@H]2OC(CN)=CC[C@H]2N)[C@H](O)[C@H]1O[C@H]1OC[C@](C)(O)[C@H](NC)[C@H]1O.CCN[C@@H]1C[C@H](N)[C@@H](O[C@H]2OC(CN)=CC[C@H]2N)[C@H](O)[C@H]1O[C@H]1OC[C@](C)(O)[C@H](NC)[C@H]1O.O=S(=O)(O)O.O=S(=O)(O)O.O=S(=O)(O)O.O=S(=O)(O)O.O=S(=O)(O)O the GFP-positive cells was 119%.
With CC1(C)CCC(CN2CCN(c3ccc(C(=O)NS(=O)(=O)c4ccc(NCC5CCOCC5)c([N+](=O)[O-])c4)c(Oc4cnc5[nH]ccc5c4)c3)CC2)=C(c2ccc(Cl)cc2)C1 the GFP-positive cells was 0.14%.
With CCOc1cc([C@@H](CS(C)(=O)=O)N2C(=O)c3cccc(NC(C)=O)c3C2=O)ccc1OC the GFP-positive cells was 110%.
With CC[C@H]1OC(=O)[C@H](C)[C@@H](O[C@H]2C[C@@](C)(OC)[C@@H](O)[C@H](C)O2)[C@H](C)[C@@H](O[C@@H]2O[C@H](C)C[C@H](N(C)C)[C@H]2O)[C@](C)(O)C[C@@H](C)CN(C)[C@H](C)[C@@H](O)[C@]1(C)O the GFP-positive cells was 112%.
With CCCCCCCCCC(=O)N[C@@H](Cc1c[nH]c2ccccc12)C(=O)N[C@H](CC(N)=O)C(=O)N[C@@H](CC(=O)O)C(=O)N[C@@H]1C(=O)NCC(=O)N[C@@H](CCCN)C(=O)N[C@@H](CC(=O)O)C(=O)N[C@H](C)C(=O)N[C@@H](CC(=O)O)C(=O)NCC(=O)N[C@H](CO)C(=O)N[C@@H]([C@H](C)CC(=O)O)C(=O)N[C@@H](CC(=O)c2ccccc2N)C(=O)O[C@@H]1C the GFP-positive cells was 110%.
The GFP-positive cells of CC(C)(C)c1cc(C(C)(C)C)c(NC(=O)c2c[nH]c3ccccc3c2=O)cc1O is reported as 108%.
CC(C)(C)c1nc(-c2cccc(NS(=O)(=O)c3c(F)cccc3F)c2F)c(-c2ccnc(N)n2)s1 has a GFP-positive cells of 85.9%.
CCCS(=O)(=O)Nc1ccc(F)c(C(=O)c2c[nH]c3ncc(-c4ccc(Cl)cc4)cc23)c1F has a GFP-positive cells of 114%.
CC[C@H](Nc1ncnc2[nH]cnc12)c1nc2cccc(F)c2c(=O)n1-c1ccccc1 gave a GFP-positive cells of 98.8%.
For NCCC(O)(P(=O)([O-])O)P(=O)([O-])O.[Na+].[Na+], the GFP-positive cells was 127%.
The GFP-positive cells of N=C(N)NCCN1CCCCCCC1.O=S(=O)(O)O is reported as 103%.
COC(=O)c1ccc2c(c1)NC(=O)/C2=C(\Nc1ccc(N(C)C(=O)CN2CCN(C)CC2)cc1)c1ccccc1 gave a GFP-positive cells of 150%.
With CC(C)C[C@H](NC(=O)[C@H](CCc1ccccc1)NC(=O)CN1CCOCC1)C(=O)N[C@@H](Cc1ccccc1)C(=O)N[C@@H](CC(C)C)C(=O)[C@@]1(C)CO1 the GFP-positive cells was 3.22%.
For C[C@H]1O[C@]2(CS1)CN1CCC2CC1.C[C@H]1O[C@]2(CS1)CN1CCC2CC1.Cl.Cl.O, the GFP-positive cells was 99.7%.
COc1cc2nccc(Oc3ccc(NC(=O)C4(C(=O)Nc5ccc(F)cc5)CC4)cc3)c2cc1OC.O=C(O)C[C@H](O)C(=O)O gave a GFP-positive cells of 105%.
For CO[C@H]1C[C@@H]2CC[C@@H](C)[C@@](O)(O2)C(=O)C(=O)N2CCCC[C@H]2C(=O)O[C@H]([C@H](C)C[C@@H]2CC[C@@H](OC(=O)C(C)(CO)CO)[C@H](OC)C2)CC(=O)[C@H](C)/C=C(\C)[C@@H](O)[C@@H](OC)C(=O)[C@H](C)C[C@H](C)/C=C/C=C/C=C/1C, the GFP-positive cells was 91.8%.
The GFP-positive cells of Br.Cc1ccc(Sc2ccccc2N2CCNCC2)c(C)c1 is reported as 102%.
With CC(C)C[C@H](NC(=O)CNC(=O)c1cc(Cl)ccc1Cl)B(O)O the GFP-positive cells was 7.99%.

Set 2
Organism: Sarcocystis neurona
Read-out: parasite growth
Concentration: 10 µM
The inhibition of Cl.Oc1cc2c(cc1O)[C@H]1c3ccccc3CN[C@@H]1CC2 is reported as -39.2%.
C[C@]12CCC(=O)C[C@@H]1CC[C@@H]1[C@@H]2CC[C@@]2(C)[C@H]1CC[C@]2(C)O has an inhibition of 7.6%.
The inhibition of C[C@]12CCC(=O)C=C1CC[C@@H]1[C@@H]2CC[C@@]2(C)[C@H]1CC[C@]2(C)O is reported as 14.2%.
The inhibition of CNC1CC(c2ccc(Cl)c(Cl)c2)c2ccccc21 (stereo not shown) is reported as 10.8%.

Set 3
Cell line: HEK-293T-ACE2-TMPRSS2
Technique: cell count
Concentration: 10 µM
The viability of CCCS(=O)(=O)N1C[C@@H](COC)[C@H](c2nc(C)no2)C1 is reported as 101%.
The viability of COc1ccccc1C(=O)c1sc(Nc2ccc(C(C)C)cc2)nc1N is reported as 74%.
The viability of Cc1nc(C(=O)N2CCC3(CCCN(CC4CCC4)C3=O)C2)cs1 (stereo not shown) is reported as 113%.
FC(F)(F)c1ccnc(Oc2ccc(CN3CCCC3)cc2Cl)c1 gave a viability of 76%.
Cc1ccc(C)c(OCC(=O)NCc2noc(Cc3cccs3)n2)c1C has a viability of 86%.
O=C(CC1CC1)N1CC(F)(F)C[C@H]1c1nc(-c2cccnc2)no1 has a viability of 96%.
Cc1ncsc1CCN(C)C(=O)[C@H]1Cc2ccccc2CN1 has a viability of 68%.
Cc1noc([C@@H]2CN(Cc3ccc(OC(F)(F)F)cc3)C[C@H]2CO)n1 gave a viability of 107%.
Cc1cccc(-c2[nH]c(C(C)(C)C)nc2-c2ccc3c(c2)OCO3)n1 gave a viability of 112%.
For COCCc1noc([C@@H]2CN(C3CCCC3)C[C@H]2CO)n1, the viability was 95%.
The viability of COc1ccc(NC(=O)CC(=O)N2CCC(Oc3ccc(C)cc3)CC2)c(OC)c1 is reported as 88%.
CCCCc1cc(=O)oc2c(C)c(O)ccc12 has a viability of 76%.
CC(C)CS(=O)(=O)c1oc(-c2ccc(F)cc2)nc1S(=O)(=O)c1ccc(F)cc1 gave a viability of 77%.
With O=C(CCc1ccco1)NCc1cccnc1-n1cnc2ccccc21 the viability was 106%.
Cn1c(CC2CCNCC2)nnc1SCc1cc(F)ccc1Cl has a viability of 87%.
Cc1cc2c(cc1O)NC(=O)CC2c1ccc(Oc2ccccc2)nc1 (stereo not shown) gave a viability of 105%.
O=C(Nc1ccccc1)c1nc(S(=O)(=O)Cc2ccc(F)cc2)ncc1Cl has a viability of 89%.
O=C(O)c1csc(Cc2ccc(Cl)cc2)n1 has a viability of 65%.
The viability of CC(c1ccc(-c2ccc3sc(N)nc3c2)cc1)N1CCOCC1 (stereo not shown) is reported as 104%.

Mixed results
The logD (1,9-decadiene/water) of Cc1ncsc1-c1ccc(CNC(=O)[C@@H]2C[C@@H](O)CN2C(=O)[C@@H](NC(=O)CCCCCNC(=O)Cc2ccccc2)C(C)(C)C)cc1 is reported as -3.05 (exponential regression of PRP log k').
